Measurements from different studies.
Parts stem from different laboratories: compare values within a part only.

Study 1
Target: Ras GTPase-activating protein-binding protein 1, C-terminal RGG region (G3BP1, Homo sapiens, UniProt Q13283)
Sequence of UniProt Q13283 (whole entry, looked up): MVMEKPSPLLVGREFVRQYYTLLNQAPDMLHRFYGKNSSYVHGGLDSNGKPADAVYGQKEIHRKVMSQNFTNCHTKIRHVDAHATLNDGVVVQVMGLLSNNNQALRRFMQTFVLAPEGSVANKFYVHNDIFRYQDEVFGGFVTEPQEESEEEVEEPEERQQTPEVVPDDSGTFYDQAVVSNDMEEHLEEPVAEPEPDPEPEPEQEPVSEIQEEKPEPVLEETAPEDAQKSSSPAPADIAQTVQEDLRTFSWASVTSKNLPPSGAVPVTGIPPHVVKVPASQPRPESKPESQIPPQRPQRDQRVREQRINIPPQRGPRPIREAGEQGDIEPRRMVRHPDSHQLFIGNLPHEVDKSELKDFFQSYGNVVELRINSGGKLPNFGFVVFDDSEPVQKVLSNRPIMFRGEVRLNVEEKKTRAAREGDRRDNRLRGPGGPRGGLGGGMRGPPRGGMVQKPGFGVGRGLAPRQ
Technique: RNA Bind-n-Seq
Form: RNA
Matrix: in vitro
Tested at: 1 µM
Notes: whole 134-nt RNA, ends assumed
Added: 150 mM KCl
Baseline: input library
Reading: higher = stronger binding
Quantity: log2 enrichment
Shared flanks, not repeated: GGGAGUUCUACAGUCCGACGAUC … UGGAAUUCUCGGGUGUCAAGG
AAGUCCUGUGCUACACAUCGUAUGUACCGAAUCGGUUUGGAAAAAGGUUUUUUUGGAAAGUAUUAUGUUACGCCGUUCGGAUCUGCACUU: -2.12
AAGUCCUGUGCUACACAUCGUAUGUACCGAAUCGGGUUUUUUUGGGAAAGGGAGGGAAAGUAUUAUGUUACGCCGUUCGGAUCUGCACUU: 1
CAAGUCCUGUGCUACACAUCGUAUGUACCGAAUCGGGGAAGGGAAGGGGAAGGGGAAAGUAUUAUGUUACGCCGUUCGGAUCUGCACUUC: 2.85
CUCAAGUCCUGUGCUACACAUCGUAUGUACCGAAUCGGAAGGGAAGGGAAGGGAAAGUAUUAUGUUACGCCGUUCGGAUCUGCACUUCCA: 0.246
UUAGGCACUUGUUGGGCUCAUCACCGUUGUGUGGAGUGGUCACUAGGAGUAUGCCAGAUGGAAGAACCAUUGUUAGUGAACGUGGACAAA: -1.77
AAGUCCUGUGCUACACAUCGUAUGUACCGAAUCGGCCCCGGCCCCGGGGCCCCGGGGAAAGUAUUAUGUUACGCCGUUCGGAUCUGCACU: -2.11
CUGUGCUACACAUCGUAUGUACCGAAUCGGGGUUUGGGGAAAAAAAGGGGAAAAAAAGGGGAAAGUAUUAUGUUACGCCGUUCGGAUCUG: 0.00425
UCCUGUGCUACACAUCGUAUGUACCGAAUCGGGUUUGGGUUUUUUUGGGUUUUUUUGGGAAAGUAUUAUGUUACGCCGUUCGGAUCUGCA: 0.0179
CUCAAGUCCUGUGCUACACAUCGUAUGUACCGAAUCGGAAAAAAAGGAGGUGGAAAGUAUUAUGUUACGCCGUUCGGAUCUGCACUUCCA: -1.36

Study 2
Target: RNA binding protein fox-1 homolog 2, RRM domain, GST-SBP tag (RBFOX2, Homo sapiens, UniProt O43251-10, residues 100-194)
Technique: RNA Bind-n-Seq
Form: RNA
Matrix: in vitro
Tested at: 365 nM
Notes: natural RNA segment, single round, ends assumed
Baseline: no-protein control
Reading: higher = stronger binding
Quantity: RBNS enrichment (R)
Shared flanks, not repeated: GGGAGUUCUACAGUCCGACGAUC … UGGAAUUCUCGGGUGCCAA
Target sequence (chain): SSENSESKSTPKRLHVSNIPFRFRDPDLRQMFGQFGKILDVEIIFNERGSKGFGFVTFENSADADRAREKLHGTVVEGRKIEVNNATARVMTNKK
CUUUAUAAGGUCAGUGUGCAUUUGUUCUAGUUAUAAUGCUUUUAAAUUGUACUUUUUCUUCCCAUGUGAGCAUUGUGGGAAGGAAUGGACACAGAGCAGCGUAGACAUUU: 0.417
UUGCCAACUCCUCCAGCCACAGGCAAGGCCACGGCUCCGGGCUGUUGCGCUCUAAGGGUUCUGUGAUUGGAUGGAACAGAGCUGCUGGGGAGGAGACUGGAAGUUUCUGC: 1.61
AUCUCAGGAGGCAGCCUUCCUGACCAAGUGUGUUUGACAUGGAGCGCCCUGUGGUGCCCACCUCCAACCCUCCAGUCUCCUGGUGUUCAUCUGGGCAUGUCUGCACAAGC: 0.246
CAAAUAACUAAGUUUGGAGGUAUUUUCACUCUAUAUGAAUAAAUAUUUUUCCAUAAAAUAGUUGUGAUUAUAUUUUUGUUUUAUAUAGGUCCCAAAUUAUAAUUGUCAAA: 0.773
GACCUAGCCAACAACAGCACCUCAAUCUGAUACACUCCCGAUGCCACAUUUUUAACUCCUCUCGCUCUGAUGGGACAUUUGUUACCCUUUUUUCAUAGUGAAAUUGUGUU: 0.859
AGAUCUGCCUACCUCUCUGCCUAUGCCUAAGCCUAAGCCUAAGCCUAAGCCUAAGCCUAUGCCUAUGCCUUUCAGAGUUGGGAUUCCGGGCAUGCCACACCACUGCCCAG: 0.234
AAAGGGGAGCUAUUUUUGCUUUUUAUGUUUUUUAUUGUUAAACUUGUAUCCCUUUAAAAACUGAAGGAAAUUAAAAAAAAAAAACAAAAAAACAAAUCUAAUGGUGCUUU: 1.29
UUUGCCCAGCUCAGCAUCAGCUAAACCACAGACCUGGAAGAGUCAGCCUAGGAGAUGCCACACAUGCACAUGUCUGUUGCUUCUGUUGGCCUGAACCUACAACUGCCAAA: 6.79

Study 3
Target: Prothrombin, mature alpha-thrombin (F2, Homo sapiens, UniProt P00734)
Technique: aptamer microarray, sandwich
Form: DNA with 2'F-ANA
Matrix: in vitro
Tested at: 200 nM
Notes: whole 15-mer aptamer, many near background
Added: Cy3 exosite-II aptamer, 400 nM
Reading: higher = stronger binding
Quantity: mean fluorescence intensity
Sequence: GGTTGGTGTGGTTGG
2'F-ANA at 1 3 4 7 8 11 13: 236 a.u.
2'F-ANA at 2 4 5 8 11 12 14: 99.6 a.u.
2'F-ANA at 4 5 7 12 13 14 15: 44.7 a.u.
2'F-ANA at 2 4 5 6 7 8 9 10 11 12 13: 54.7 a.u.
2'F-ANA at 1 2 3 6 8 9 10 11: 62 a.u.
2'F-ANA at 2 4 6 8 9 10 14: 57.1 a.u.
2'F-ANA at 2 3 4 7 8 10 12 14: 237 a.u.
2'F-ANA at 1 2 3 4 14 15: 76.7 a.u.
2'F-ANA at 1 2 4 6 9 13: 86 a.u.
2'F-ANA at 1 2 3 7 11 12 13 15: 339 a.u.
2'F-ANA at 1 6 7 9 10 11 14: 48.1 a.u.
2'F-ANA at 1 2 6 7 8 14: 57.2 a.u.
2'F-ANA at 1 3 4 5 8 10 14: 43.7 a.u.
2'F-ANA at 1 2 3 4 7 11 12: 321 a.u.
2'F-ANA at 2 3 5 7 13 15: 75.8 a.u.
2'F-ANA at 1 2 3 4 5 6 7 8 10 11 12 13 14: 54.5 a.u.
2'F-ANA at 1 2 3 10 11 12 13: 84.9 a.u.
2'F-ANA at 2 4 5 9 10 13: 45.7 a.u.

Study 4
Target: Histone acetyltransferase KAT6A, both winged helices, GST fusion (KAT6A, Homo sapiens, UniProt Q92794, residues 1-181)
Technique: protein binding microarray
Form: double-stranded DNA, one strand shown
Matrix: in vitro
Tested at: not given
Notes: 8-mer, flanks averaged, mean of 2 arrays, mostly near background
Baseline: not given
Reading: higher = stronger binding
Quantity: E-score
Target sequence (chain): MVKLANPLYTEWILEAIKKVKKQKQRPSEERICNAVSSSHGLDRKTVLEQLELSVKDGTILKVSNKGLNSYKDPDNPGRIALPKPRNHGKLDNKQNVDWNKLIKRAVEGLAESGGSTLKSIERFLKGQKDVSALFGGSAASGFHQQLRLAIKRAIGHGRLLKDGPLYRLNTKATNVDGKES
GGTACAGA: -0.03
CCCAAGGG: -0.17
CCATTACA: -0.0632
TCAGGTCA: -0.0811
AACCCTAA: -0.13
CGGGCAAG: 0.181
CGTATGAG: 0.00885
GACATTCC: -0.00839
CATGCCGA: 0.242
CACCCAGA: -0.0469
CCCCCGAG: 0.0643
AATACCCC: 0.0123
GTGGAACA: 0.0238
CGTTTAAA: 0.0481
GGAACTCC: 0.0177
GTCGACTA: 0.0479
ATTCGGCA: 0.109
ATCCCTCC: -0.142
CAACTGAG: 0.00547
ACTGTGCT: -0.0427
CCGGGAGG: 0.114
AAGCTGGG: -0.0975
GGCAGCCA: -0.0297
CCTGATGC: 0.0658
GGACGGCA: 0.245

Study 5
Target: Sal-like protein 4, full length isoform B (SALL4, Homo sapiens, UniProt Q9UJQ4-2, residues 1-616)
Technique: universal PBM
Form: double-stranded DNA, one strand shown
Matrix: in vitro
Tested at: not given
Notes: 8-mer, flanks averaged, mean of replicates
Reading: higher = stronger binding
Quantity: E-score
Residues (chain): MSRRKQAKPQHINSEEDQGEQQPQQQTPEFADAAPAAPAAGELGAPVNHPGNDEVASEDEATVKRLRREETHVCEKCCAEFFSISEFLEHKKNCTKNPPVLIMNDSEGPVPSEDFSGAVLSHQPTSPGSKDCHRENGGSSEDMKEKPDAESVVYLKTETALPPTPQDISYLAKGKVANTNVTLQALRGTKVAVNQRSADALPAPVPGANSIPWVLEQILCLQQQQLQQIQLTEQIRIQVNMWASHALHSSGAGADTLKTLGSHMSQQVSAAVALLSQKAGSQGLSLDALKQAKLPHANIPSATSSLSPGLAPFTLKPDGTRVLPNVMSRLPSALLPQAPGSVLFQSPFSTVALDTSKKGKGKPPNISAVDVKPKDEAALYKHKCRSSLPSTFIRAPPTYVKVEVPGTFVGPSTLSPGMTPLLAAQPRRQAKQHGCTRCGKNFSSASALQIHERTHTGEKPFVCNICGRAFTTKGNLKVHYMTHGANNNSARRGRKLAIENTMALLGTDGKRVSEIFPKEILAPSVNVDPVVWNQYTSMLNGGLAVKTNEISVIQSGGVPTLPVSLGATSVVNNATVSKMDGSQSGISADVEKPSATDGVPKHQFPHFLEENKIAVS
CGAGTAAA: 0.0687
AACTCTCC: -0.129
GATGGATA: 0.00867
CTAGATCC: -0.125
AAGTTGGC: 0.0241
CGTAAGTC: 0.0424
CGAACTAC: -0.0714
GCATGAGA: -0.00563
ATTGATCA: 0.24
ACGCTCGG: -0.167
ATCGCCGA: -0.102
ATATTCTC: 0.258
AGGGACCA: -0.247
CCACACCA: 0.0473
AGTCGTTA: 0.0276
AAGTTTAC: 0.141
TAAGCGCA: -0.146
AGCGTTGA: -0.157
CTAGTTTA: 0.128
AAGCTACT: 2e-05
